Published values collected from several papers.
Each line is one published result; not all experiments were run side by side. Several values in a cell are separate wells, animals, samples, runs or records.
Target: Receptor-interacting serine/threonine-protein kinase 2 (RIPK2, Homo sapiens, UniProt O43353)

SMILES = C=CC(=O)N1CCCC(n2c(=O)c3ncccc3n(Cc3ccc(Oc4ccccc4)cc3)c2=O)C1 (centres unmarked); test = cell-free assay, competition with immobilised ligand; setting = 1 µM; quantity = remaining binding; result = 98%
SMILES = CNC1C[S+]2CC[S+]3CC[S+](C1)[Ru-4]321([N]=C=S)[n]2c3ccc(OC)cc3c3c4c(c5cc(F)c[n+]1c5c32)C(=O)NC4=O (centres unmarked); test = KinomeScan; setting = 0.1 µM; scale = reference: untreated; quantity = remaining binding; result = 100%
SMILES = NC(=O)[C@@H](O)C[C@H]1CCc2sc3ncnc(O[C@H]4CC[C@H](N5CCOCC5)CC4)c3c21; test = enzyme activity, inhibitor; setting = 10 µM; quantity = inhibition; result = 60%
SMILES = CNC(=O)C[C@H](Cc1ccc(C#N)cc1)NC(=O)c1cc(-c2ccc(CN[C@H](C)c3ccc(C)cc3)o2)ccc1Cl; test = enzyme activity, inhibitor; setting = 1 µM; quantity = activity vs control; result = 98%
SMILES = CN1CCN(Cc2ccc(-c3ccc(CO[C@H]4CCC[C@@H]4NC(=O)c4cc(-c5cnn(C)c5)cnc4N)cc3)cc2)CC1; test = enzyme activity, inhibitor; setting = 0.1 µM; quantity = inhibition; result = -1%
SMILES = Nc1ncc2c(n1)-c1c([nH]c3ccc(C4=CCOCC4)cc13)CCC2; test = binding, competition with immobilised ligand; setting = 1 µM; quantity = remaining binding; result = 99%
SMILES = O=C(Nc1ccc(Oc2ncnc3[nH]cc(-c4ccccc4)c23)c(F)c1)c1c2n(n(-c3cc(F)ccc3F)c1=O)CCCC2; test = enzyme activity, inhibitor; setting = 0.5 µM; quantity = inhibition; result = 6%
SMILES = Cc1nc2c(F)cc(-c3nc(Nc4ccc(CNC(=O)CCCCCCC(=O)NO)cc4)ncc3F)cc2n1C(C)C; test = enzyme activity, inhibitor; setting = 1 µM; quantity = inhibition; result = 77%
SMILES = C=CC(=O)Nc1cccc(-c2cnc3[nH]cc(C(=O)NC(C)(C)C)c3n2)c1; test = kinase activity; setting = 0.1 µM; quantity = inhibition; result = 4% and 0%
SMILES = COc1cc(Nc2nccc(-c3cnn4nc(OC)ccc34)n2)cc(C(F)(F)F)c1; test = binding, competition with immobilised ligand; setting = 1 µM; quantity = remaining binding; result = 88%
SMILES = C=CC(=O)N1CCc2ccc(-n3c(=O)ccc4cnc5ccc(-c6cnn(C)c6)cc5c43)cc21; test = KINOMEscan; setting = 1 µM; scale = reference: DMSO control; quantity = remaining binding; result = 75%
SMILES = Cc1cnc2nc1Nc1cccc(c1)COC/C=C/COCc1cc(ccc1OCCN1CCOCC1)N2; test = binding, competition with immobilised ligand; setting = 0.1 µM; quantity = remaining binding; result = 100%
SMILES = C=CC(=O)N1Cc2nc(-c3cc(-c4cc(Cl)cnc4Cl)c(F)cc3F)n(-c3ccncn3)c2C1; test = cell-free assay, inhibitor; setting = 1 µM; quantity = inhibition; result = -4.6%
SMILES = COCC12C(=O)NC3C4(C(OC)CC1O)C1CC5(O)C(OC)C(O)C(OC(C)=O)(C1C5OC(=O)c1ccccc1)C3(O)C(OC)C24 (centres unmarked); test = kinase activity, inhibitor, ProQinase kinase profiling; setting = 25 µM; scale = reference: control; quantity = remaining activity; result = 102% and 97%
SMILES = CN1CC[C@@H](COc2cnc(C#N)cc2-c2ccn3nc(NC(=O)C4CC4)cc3c2)C1; test = enzyme activity, inhibitor; setting = 1 µM; quantity = inhibition; result = 69%
SMILES = Cc1cccc(O[C@H]2CCC[C@@H](C(C)CNCc3ccncc3)C2)c1 (relative stereo); test = enzyme activity, inhibitor; setting = 10 µM; quantity = inhibition; result = -2%
SMILES = Cc1ccc(-c2c(/C=C(\C#N)C(=O)NC(C)C)n(CCCO)c3ncnc(N)c23)cc1; test = cell-free assay, competition with immobilised ligand; setting = 1 µM; quantity = remaining binding; result = 9.4%
